Measurements of several laboratories.
Parts stem from different laboratories: compare values within a part only.

Block 1
Target: Histone acetyltransferase KAT6A, both winged helices, GST fusion (KAT6A, Homo sapiens, UniProt Q92794, residues 1-181)
Method: protein binding microarray
Form: double-stranded DNA, one strand shown
Sample: in vitro
Tested at: not given
Setting: 8-mer, flanks averaged, mean of 2 arrays, mostly near background
Reference: not given
Reading: higher = stronger binding
Residues (chain): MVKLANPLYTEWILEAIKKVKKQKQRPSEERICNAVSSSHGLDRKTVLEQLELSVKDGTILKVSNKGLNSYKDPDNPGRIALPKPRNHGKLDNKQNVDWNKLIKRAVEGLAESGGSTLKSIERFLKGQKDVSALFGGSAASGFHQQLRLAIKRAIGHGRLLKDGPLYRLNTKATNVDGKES
Oligonucleotide	E-score
CAGGACAA	-0.18
AGGTGTAT	-0.152
AGTCAAGC	-0.00419
AAGGTTCG	0.0355
AAACTGGC	-0.126
CGAGGAAA	-0.114
CATGTTGG	-0.0585
CAAATCAC	0.0226
ATTGACCG	0.25
ATCTCGAG	-0.023
ATCATCAC	-0.067
CACTCAAG	-0.212
CCAGGCTA	-0.177
CCTCGACG	0.00843

Block 2
Target: Phosphate system positive regulatory protein PHO4, full length, GST-tagged (PHO4, Saccharomyces cerevisiae, UniProt P07270, residues 1-312)
Method: competition protein-binding microarray
Form: double-stranded DNA, one strand shown
Sample: in vitro
Tested at: 2 µM
Setting: whole 60-bp probe, lowest competitor level
Together with: Cbf1 competitor, 0.05 µM
Reading: higher = stronger binding
Constant ends, left off below: … GTCTTGATTCGCTTGACGCTGCTG
Target sequence (chain): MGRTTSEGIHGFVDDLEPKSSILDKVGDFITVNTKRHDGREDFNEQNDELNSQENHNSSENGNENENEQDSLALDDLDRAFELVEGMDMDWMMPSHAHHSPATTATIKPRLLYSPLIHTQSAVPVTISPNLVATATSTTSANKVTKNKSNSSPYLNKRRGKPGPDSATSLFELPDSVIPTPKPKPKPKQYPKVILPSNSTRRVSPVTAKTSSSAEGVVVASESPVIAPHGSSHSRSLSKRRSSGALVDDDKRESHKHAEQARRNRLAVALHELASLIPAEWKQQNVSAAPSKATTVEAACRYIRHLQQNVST
Oligonucleotide	fluorescence intensity [a.u.]
CCGGTAAAAGCCGGGAACGTGCGGAACAATTTTTTT	16100
AGCGTTGAAGACAAATTCGTGACTCGTTGGTCCTAA	4290
TGAATACGTCTCTTGCTCGTGTGTTTTGCCATTATG	7810
AAATTACTAAGTTGGAGCGTGGGTGACGCCGTATGA	8530
TCATGCATCCATTGCCTCGTGTAACTGAAATCAAAG	8720
ATTCAATGTTCTCAGGACGTGCTAAAAGGAAACCCA	7560
CGGGGTTAAGTTTGTACGGTGGGTGGCTTGCAGCAG	5330
TGCGCAACAACTTTTCACGTGAAGTTATGTCTAGAA	9120

Block 3
Target: RNA binding protein fox-1 homolog 2, RRM domain, GST-SBP tag (RBFOX2, Homo sapiens, UniProt O43251-10, residues 100-194)
Method: RNA Bind-n-Seq
Form: RNA
Sample: in vitro
Tested at: 365 nM
Setting: natural RNA segment, single round, ends assumed
Reference: no-protein control
Reading: higher = stronger binding
Constant ends, left off below: GGGAGUUCUACAGUCCGACGAUC … UGGAAUUCUCGGGUGCCAA
Residues (chain): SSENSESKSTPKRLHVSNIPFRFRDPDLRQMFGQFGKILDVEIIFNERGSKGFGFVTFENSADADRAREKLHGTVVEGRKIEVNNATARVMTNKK
Oligonucleotide	RBNS enrichment (R)
UUCAUAACAGUGCCAUUGUCUUUAUAUGAACAUAGACUAGAGAAACCGUCCUCUUUUUCCAUCAUAAUUCUAAUCUAACAAUGGAAGAUUUGCCCAUUUACACUUUUGAG	0.433
CAUUUUCCUGGUUAAGAAAUCUGUAUAAAGUUAGUGAGAUGCAUAUUCUUUAUAUAAGGUGGGCAUCAAGCAACCAGAAGUGCAAACUUCCCUCCCUUUACUUCUGUUGC	0.602
CGCAUUGGGUUUAAAACCAGCACCGAGGCCCAGUGGGGGAAUCACAGACAUCACCAAGUCUCGUCUUCUUUCCUUCCUGUGAGUUGAAACCAAACAGGCCUCUCGCUCAC	0.333
CUAAAUGGAAACUGUAGGUGGCUUCCUCUGAUCUGUCUGCCAGUGGGUGUUGCUGCCCUGCUUGUCAGCUCUGCAAAUGAGCGCUGCUCCCCAGCUUGCGCAGAGACGUG	0.991
UCCAUUAUUUCUCUACUUUUCCUUCCAGCAAACCUGAAACGUGAGGGAGAUGGAUUAAUGUGAGUAACAGGAAUGUGUCUUUAAAAAGCUAGAGUGGUUACAUUUAAUCA	0.345
GUAAAGCCAGCUGCUCUGGAGGCGGAGGCAGGAGGAUCUCAAAUUCAAGCCUGCUUAAGCUACUUAUAGUUCAGGGUCCGCUUAACAAUUUAUAAGACUGUGUCUUGUUC	1.97
ACCCAAGACUUAUUCAAAGCUGUGGCUAAGAGCAGAGACGCUGUUCACACAACGCCUCACCACCACCAGCCUCCAGGCAAAACCAGAUAGGAUGCACCGUUCUAGCACCU	0.27

Single results of other studies
Substance	target	assay	test system	setting	scale	endpoint	result
PhoQ, residues 284 288 289 292 302 303 SSTLSG	PhoP, residues 12 14 15 18 19 IQFRS (Escherichia coli, UniProt P23836)	Sort-seq, measured: YFP reporter	E. coli	PhoQ-PhoP variant library, together with: 10 µM Mg2+	reference: high Mg2+ state, higher = stronger signaling	fold induction	19.6
